# Experimental data pooled from the literature.
# Compare with care: the assays were run in different laboratories. “And” joins repeats or separate records; there may be more than shown. ± gives the spread as reported.
# UCHL1: Ubiquitin carboxyl-terminal hydrolase isozyme L1 (UCHL1, Homo sapiens, UniProt P09936)
# Voltage-dependent P/Q-type calcium channel subunit alpha-1A: Voltage-dependent P/Q-type calcium channel subunit alpha-1A (Homo sapiens, UniProt O00555)
# PLK1: Serine/threonine-protein kinase PLK1 (PLK1, Homo sapiens, UniProt P53350)
# ADRA2C: Alpha-2C adrenergic receptor (ADRA2C, Homo sapiens, UniProt P18825)
# BEST1: BEST1 (Homo sapiens, UniProt O76090)
# T1: G-quadruplex DNA (Homo sapiens); AGGGTGGGGAGGGTGGGGA
Structure (SMILES),tested on,assay,test system,setting,how to read,quantity,result
CC1(C)CC2(C)OC(=O)NC2(C)c2ccccc21 (stereo not shown),"Leucine-rich repeat serine/threonine-protein kinase 2, WD40 domain (LRRK2, Homo sapiens, UniProt Q5S007)","binding, affinity selection mass spectrometry",,,relative to: other proteins in batch,log fold enrichment,0.0465
Cc1nc(CSc2nc(SCc3ccc(C(C)C)cc3)nc(=O)[nH]2)cs1,"TOP2B (Homo sapiens, UniProt Q02880)",decatenation,,"125 µM, replicate 2",,decatenated DNA,0%
Cc1nn(C(C)C)c(C)c1CN1CCCC(CCC(=O)NCc2ccccc2F)C1 (stereo not shown),Trypanosoma cruzi,"reporter translation, Renilla luciferase mRNA translation",cell-free extract,40 µM,relative to: DMSO,inhibition,6.6%
O=C1CCCN1Cc1ccc(NS(=O)(=O)c2cccc(Cl)c2O)cc1,malate dehydrogenase,"enzyme activity, inhibitor",,"200 µM, pH 7.0, 1% DMSO, aggregation counter-screen",,remaining activity,92%
N#CC(=Cc1c(F)cccc1F)C(=O)NCCc1ccccc1,UCHL1,"covalent, intact protein LC-MS",,12.5 µM,,labelling,20.7%
[2H]c1cc(C)c(NC(=O)c2cnc(Nc3cc(N4CCCCC4)nc(C)n3)s2)c(Cl)c1,"PDGFRA (Homo sapiens, UniProt P16234, V561D)",,,0.01 µM,,inhibition,30 to 90%
CCCN1CCCC[C@H]1C(=O)Nc1c(C)cccc1C,Voltage-dependent P/Q-type calcium channel subunit alpha-1A,"ion current, antagonist, automated patch clamp",,,,IC30,> 30 µM
O=C(O)c1ccc(Nc2ncc3c(n2)-c2ccc(Cl)cc2C(c2c(F)cccc2F)=NC3)cc1,FGFR3(h),kinase activity,,1 µM,,remaining activity,86%
Nc1ncnc2c1ncn2[C@@H]1O[C@H](COP(=O)(O)CP(=O)(O)OP(=O)(O)O)[C@@H](O)[C@H]1O,"P2X purinoceptor 1 (P2RX1, Homo sapiens, UniProt P51575, K140A)",saturation binding,HEK293,130 nM,,specific binding,2670 CCPM and 5290 CCPM and 8740 CCPM
CCCCn1/c(=C/C=C/C2=[N+](CCC[N+](C)(C)C)c3ccc(Br)cc3C2(C)C)c2cccc3cccc1c32,"T1, G-quadruplex DNA (Homo sapiens)",absorption titration,,K+ 50 mM,,binding,binds
CC(C)NC(=O)C(C#N)=Cc1ccc2ccccc2c1,UCHL1,"covalent, intact protein LC-MS",,12.5 µM,,labelling,8.47%
CC(=O)N[C@@H](Cc1ccccc1Cl)C(=O)N1CCC[C@H]1C(=O)N1CCC[C@H]1C(=O)N1CCC[C@H]1C(=O)N1CCC[C@H]1C(=O)O,"Vasodilator-stimulated phosphoprotein, EVH1 domain (VASP, Homo sapiens, UniProt P50552)",fluorescence titration,,25 °C,,binding free energy,-6.64 kcal/mol
CC(=O)N[C@H](C(=O)N[C@@H](CC(=O)O)C(=O)N1CCC[C@H]1C(=O)N1CCC[C@H]1C(=O)N[C@@H](CC(C)C)C(=O)N[C@@H](Cc1c[nH]cn1)C(=O)N[C@@H](CO)C(=O)N[C@H](C(=O)N[C@@H](C)C(N)=O)[C@@H](C)OP(=O)(O)O)C(C)C,PLK1,"polo-box domain binding, isothermal titration calorimetry",,"concentration not given, 25 °C",,binding stoichiometry,1
CC[C@@H]1[C@H](F)C(=O)N[C@@H]1COc1nccc2cc(C(N)=O)c(OC)cc12,PLK1,"ATP-site probe binding, ActivX profiling",THP-1 cell lysate,"0.01 mM, Lys2 site",,inhibition,-0.3%
Cc1cc(Oc2ncccc2CN2CCN(c3ncccc3C(F)(F)F)CC2)ccc1-c1c(C)c(=O)[nH]c(=O)n1C,ADRA2C,"binding, radioligand binding",,together with: [3H]rauwolscine,relative to: Ki alpha2A over Ki alpha2C,selectivity ratio,6
Nc1nc2c(ncn2[C@@H]2O[C@H](COP(=O)(O)O)[C@@H](O)[C@H]2O)c(=O)[nH]1,"GUK1 (Homo sapiens, UniProt Q16774, R148A)","enzyme activity, NADH-coupled",,125 µM,,reaction rate,0.996 s⁻¹ and 0.696 s⁻¹ and 0.62 s⁻¹
Cc1cc(Oc2ncccc2CN2CCN(c3cc(Cl)cc(Cl)c3)CC2)ccc1-c1c(C)c(=O)[nH]c(=O)n1C,ADRA2C,"binding, radioligand binding",,together with: [3H]rauwolscine,relative to: Ki alpha2A over Ki alpha2C,selectivity ratio,3
O=C(O)c1ccc([N+](=O)[O-])cc1,BEST1,whole-cell patch clamp,HEK293 transiently expressing channel,"concentration not given, membrane potential 20 mV",,current density,9.38 pA/pF and 27.4 pA/pF and 21.8 pA/pF and 18.1 pA/pF and 19 pA/pF and 9.18 pA/pF and 16.9 pA/pF
Cc1cc(OCC(=O)NCCNC(=O)c2cccc(COc3ccccc3C(N)=O)c2)c2c3c(c(=O)oc2c1)CCC3,"TNKS (Homo sapiens, UniProt O95271)","enzyme activity, inhibitor",,,,ligand efficiency,0.38
CC(Cc1c(Cl)cccc1Cl)NS(=O)(=O)c1cnn(C)c1C(=O)O (stereo not shown),malate dehydrogenase,"enzyme activity, inhibitor",,"200 µM, pH 7.0, 1% DMSO, aggregation counter-screen",,remaining activity,93%
c1coc(-c2n[nH]cc2-c2ccnc3ccccc23)c1,"Serine/threonine-protein kinase HSL1 (HSL1, Candida albicans, UniProt Q5AG71)","kinase binding, MIB/MS competition",Candida albicans lysate,1 µM,"relative to: DMSO, negative = stronger binding",log2 fold change,-0.19
CC(=O)N[C@H](C(=O)N1C[C@H](O)C[C@H]1C(=O)NCc1ccc(-c2scnc2C)cc1)C(C)(C)SCCCCCCNC(=O)C[C@@H]1N=C(c2ccc(Cl)cc2)c2c(sc(C)c2C)-n2c(C)nnc21,"BRD4/VHL, BD2; with elongins B/C (Homo sapiens, UniProt O60885+P40337)",ITC,,"concentration not given, 25 °C, ternary complex, together with: BRD4 BD2",,binding stoichiometry,0.68 ± 0.03
O=C1NC(=O)C(c2ccccc2)(c2ccccc2)N1,Voltage-dependent P/Q-type calcium channel subunit alpha-1A,antagonist,HEK293,3 µM,,inhibition,18%
Nc1nc(SCc2ccc(Cl)cc2)nn1S(=O)(=O)c1ccc(Br)cc1,"LYPLAL1 (Homo sapiens, UniProt Q5VWZ2)","enzyme activity, activator, gel-based ABPP",purified protein,"concentration not given, together with: FP-rhodamine",relative to: DMSO,probe labeling increase,2.3 fold
Oc1ccc(/C=C/c2cc(O)cc(O)c2)cc1,"O-methyltransferase (Sorghum bicolor, UniProt A0A1B6PFV1)",,,together with: adenosine 1 mM,,cooperativity factor,3.46
Cn1ncc(S(=O)(=O)NC2(c3ccc(Cl)cc3F)CCCCC2)c1C(=O)O,malate dehydrogenase,"enzyme activity, inhibitor",,"200 µM, pH 7.0, 1% DMSO, aggregation counter-screen",,remaining activity,93%
Cn1c(-c2ccccc2)c(C(=O)CCl)c2ccccc21,UCHL1,"covalent, intact protein LC-MS",,12.5 µM,,labelling,42.7%
CC(=C/C(=O)O)/C=C/C=C(\C)C1C=C2C(C)(C)CCCC2(C)O1 (stereo not shown),"Rhodopsin (RHO, Homo sapiens, UniProt P08100, T17M)","immunostaining, measured: opsin",COS-7 transfected,"10.00 µM, unit not given",relative to: surface over total stained cells,plasma membrane localization,0.6
CCC1CC1(NS(=O)(=O)c1cccc(Cl)c1O)c1ccc(Cl)cc1 (stereo not shown),malate dehydrogenase,"enzyme activity, inhibitor",,"200 µM, pH 7.0, 1% DMSO, aggregation counter-screen",,remaining activity,114%
COc1cccc2c(Nc3ccc4[nH]c(C(=O)N/N=C/c5ccc(SC)cc5)cc4c3)cc(C)nc12,"HNF4A (Homo sapiens, UniProt P41235)","reporter gene, Gal4 hybrid reporter",,3 µM,relative to: vehicle,activation,1 fold
C=CC(=O)N1CCC[C@@H](n2nc(-c3ccc(Oc4ccccc4)cc3)c3c(N)ncnc32)C1,"PDGFRB (Homo sapiens, UniProt P09619)",,,10 µM,,remaining activity,26.8%
Cc1cc(C(C)N(Cc2c(C)noc2C)C(=O)CCl)c(C)o1 (stereo not shown),UCHL1,"covalent, intact protein LC-MS",,12.5 µM,,labelling,20.8%
C=CC(=O)N1CCC(COCC(=O)N2CCN(c3nc(-c4cnc(N)nc4C(F)F)nc(N4CCOC[C@@H]4C)n3)CC2)CC1,"PLK4 (Homo sapiens, UniProt O00444)",KINOMEscan,,1 µM,,remaining binding,87%
COc1cc(C=C(C#N)C(N)=O)ccc1OC(F)F,UCHL1,"covalent, intact protein LC-MS",,12.5 µM,,labelling,14.6%
C#CCCC1(CC[C@H](NC(=O)NCCCCCCNC(=O)NCCNC(=O)COc2cccc([C@@H](CCc3ccc(OC)c(OC)c3)OC(=O)[C@@H]3CCCCN3C(=O)C(=O)C(C)(C)CC)c2)C(N)=O)N=N1.O=C(O)C(F)(F)F,"FKBP1A (Homo sapiens, UniProt P62942)","photoaffinity labeling, in-gel fluorescence, measured: Alexa Fluor 647 click label",,"0.4 µM, UV irradiation 365 nm","relative to: probe over FKBP12 signal, higher = more labeling",normalized labeling ratio,2.2
COc1ccc(Cl)cc1N1CCN(Cc2cccnc2Oc2ccc(-c3c(C)c(=O)[nH]c(=O)n3C)c(C)c2)CC1,ADRA2C,"binding, radioligand binding",,together with: [3H]rauwolscine,relative to: Ki alpha2B over Ki alpha2C,selectivity ratio,2
Cc1ccnc([18F])c1-c1cccc(N2C[C@H](N3CCN(C(=O)c4nccs4)CC3)CC2=O)c1,"Monoglyceride lipase (Macaca mulatta, UniProt H9ESL3)",PET Scatchard plot,"rhesus monkey, brain OCC",baseline,,Bmax,88.3 nmol/g
CC[C@@H]1C(=O)OC[C@@H]1Cc1cncn1C.Cl,Voltage-dependent P/Q-type calcium channel subunit alpha-1A,"ion current, antagonist, automated patch clamp",,,,IC30,> 30 µM
CCCCCCCC(=O)c1cc(OC)c(OC)c(OC)c1CC(=O)OCC,"Vitamin D3 receptor (VDR, Homo sapiens, UniProt P11473)","reporter gene, Gal4 hybrid reporter",,10 µM,relative to: vehicle,activation,1.17 fold
N#Cc1nc2ccccc2s1,UCHL1,"covalent, intact protein LC-MS",,12.5 µM,,labelling,15.8%
CN(C)CCNc1c2c(c(C#N)c3nc4ccccc4n13)CCCC2,Trypanosoma cruzi,"reporter translation, Renilla luciferase mRNA translation",cell-free extract,40 µM,relative to: DMSO,inhibition,-11.8%
O=C(O)C1=CCNCC1,BEST1,whole-cell patch clamp,HEK293 transiently expressing channel,"concentration not given, membrane potential -20 mV",,current density,-26.6 pA/pF and -11.8 pA/pF and -5.01 pA/pF and -5.9 pA/pF and -15.3 pA/pF and -5.02 pA/pF
Oc1ccc([C@@H]2c3c(O)cc(O)cc3[C@@H]3c4c(cc(O)c5c4[C@@H]2[C@H](c2ccc(O)cc2)[C@H]5c2cc(O)cc4c2[C@@H](c2cc(O)cc(O)c2)[C@H](c2ccc(O)cc2)O4)O[C@H]3c2ccc(O)cc2)cc1,"Alpha-amylase 1A (AMY1A, Homo sapiens, UniProt P0DUB6)",enzyme activity,,20 µM,,Vmax,317 ± 100 µmol/min
